Measured values collected from several papers.
A part holds a random share of what one study measured. Changes are numbered by the printed parent chain.

Series 1 — target: CRIPT, C-terminal peptide; technique: DHFR complementation, deep sequencing; sample: yeast; baseline: wild type; direction: higher = weaker binding
Notes: single substitutions, model-inferred values
Parent: ERBIN, PDZ domain 1 (human); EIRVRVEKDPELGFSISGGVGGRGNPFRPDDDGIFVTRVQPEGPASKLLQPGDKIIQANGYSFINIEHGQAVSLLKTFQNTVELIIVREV; partner TKNYKQTSV
Variant	binding free energy change
V72M	1.6 kcal/mol
E7C	0.0928 kcal/mol
A45F	1.36 kcal/mol
S17T	0.295 kcal/mol
D9N	-0.241 kcal/mol
R23T	-0.575 kcal/mol
L12M	0.0815 kcal/mol
Q70P	0.347 kcal/mol

Series 2 — target: OGT, full length, His-tagged (human); technique: phage display, sequencing; sample: in vitro; concentration: 1 µg OGT; baseline: input library; direction: higher = stronger binding; parent: peptide; NSEYMPQYQIIFAHQ
Notes: single substitutions, 15-mer displayed peptide, unchanged parent 16.7
Variant	fold enrichment [fold]
N1Y	15.9
M5E	4.93
Q15A	9.81
Q9P	6.28
Y8K	0.56
F12W	20
I11H	18.8
N1T	15.3

Series 3 — technique: RNA Bind-n-Seq; form: RNA; sample: in vitro; concentration: 20 nM; notes: 6-mer, flanks averaged, single round; together with: 150 mM LiCl; baseline: input library; direction: higher = stronger binding
Target: TAR DNA-binding protein 43, full length, His tag (TARDBP, Homo sapiens, UniProt Q13148, residues 1-414)
Strand	6-mer enrichment (R)
AACCUA	0.829
CGUUGC	0.935
AUUCGG	0.898
CACGGA	0.87
GCAAGC	0.891
CAGAUA	0.816
GCGAAC	0.864
AUGCGU	1.14

Single results of other studies
Structure (SMILES)	cell line	test	conditions	scale	endpoint	value
CN(C)c1cc(NC(=O)CNC(C)(C)C)c(O)c2c1CC1CC3C(N(C)C)C(=O)C(C(N)=O)=C(O)C3(O)C(=O)C1=C2O (stereo not shown)	mouse MPNST tumor cells	high-content immunofluorescence imaging, item: nuclear SOX9	10 µM, 12 h, mean of 2 replicates	baseline: DMSO control, higher = more nuclear SOX9	nuclear SOX9 intensity	100 % of DMSO

Repeated from above (series 2):
Variant	fold enrichment [fold]
Q15A	9.81
